Measured values pooled from the literature.
Parts stem from different laboratories: compare values within a part only. Changes are numbered by the printed parent chain.

Series 1
Target: Microphthalmia-associated transcription factor, full length (MITF, Homo sapiens, UniProt O75030-10, residues 1-413)
Method: protein-binding microarray
Form: double-stranded DNA, one strand shown
Sample: in vitro
Tested at: not given
Setting: k-mer, scored over probes, only values ≥0.25
Reading: higher = stronger binding
Residues (chain): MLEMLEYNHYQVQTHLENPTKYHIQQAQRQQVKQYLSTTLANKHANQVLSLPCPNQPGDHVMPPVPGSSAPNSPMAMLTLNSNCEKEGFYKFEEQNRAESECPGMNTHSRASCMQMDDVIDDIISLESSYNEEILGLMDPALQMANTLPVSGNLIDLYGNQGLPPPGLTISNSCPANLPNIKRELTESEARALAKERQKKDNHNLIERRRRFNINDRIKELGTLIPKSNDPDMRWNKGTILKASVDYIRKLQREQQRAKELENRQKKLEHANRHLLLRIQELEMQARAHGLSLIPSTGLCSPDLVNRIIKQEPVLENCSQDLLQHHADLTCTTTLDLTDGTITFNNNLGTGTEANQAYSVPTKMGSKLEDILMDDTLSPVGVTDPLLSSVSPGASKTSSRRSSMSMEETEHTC
Oligonucleotide | E-score
AACATGA | 0.293
GCATGAC | 0.428
CATGACC | 0.417
GTCACAC | 0.386
CAGGTGA | 0.402
AGTCACG | 0.468
ACGTGGA | 0.255
ACCACGT | 0.385
AACATGT | 0.357
CACCCCA | 0.315
CCACGCG | 0.42
CATATGA | 0.366
GATGACC | 0.269
GTCATGA | 0.378
AGGGAGG | 0.28
CCACACG | 0.329
ATGATCA | 0.269
GTGACCA | 0.376

Series 2
Target: Ras GTPase-activating protein-binding protein 1, full length (G3BP1, Homo sapiens, UniProt Q13283)
UniProt Q13283, sequence (whole entry, looked up): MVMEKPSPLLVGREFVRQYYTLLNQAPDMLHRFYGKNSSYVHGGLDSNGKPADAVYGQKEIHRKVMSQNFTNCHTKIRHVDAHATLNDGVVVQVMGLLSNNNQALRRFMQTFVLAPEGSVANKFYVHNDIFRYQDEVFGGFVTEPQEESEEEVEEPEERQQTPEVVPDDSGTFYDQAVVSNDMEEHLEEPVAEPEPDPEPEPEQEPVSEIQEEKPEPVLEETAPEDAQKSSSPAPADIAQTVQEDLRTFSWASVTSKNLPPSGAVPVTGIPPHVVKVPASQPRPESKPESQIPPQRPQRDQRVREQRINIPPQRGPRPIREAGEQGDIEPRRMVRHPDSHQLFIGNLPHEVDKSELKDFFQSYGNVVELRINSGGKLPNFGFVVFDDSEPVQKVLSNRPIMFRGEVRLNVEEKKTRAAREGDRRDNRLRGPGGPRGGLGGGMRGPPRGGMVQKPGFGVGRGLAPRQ
Method: RNA Bind-n-Seq
Form: RNA
Sample: in vitro
Tested at: 200 nM
Setting: whole 134-nt RNA, ends assumed
With: 150 mM LiCl
Reference: input library
Reading: higher = stronger binding
All molecules: 7-deaza-guanosine replaces G
Oligonucleotide | log2 enrichment
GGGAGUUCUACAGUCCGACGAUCGCAGGAAGUAAAAACAAAUGGAAAUGCUUCGGAUAGUGGCAGGGGUGGGGGUUGCUAAGGAAAGGGUGGGAUGGGAGUCGGUAAAGAGUUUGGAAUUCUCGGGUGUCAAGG | -0.263
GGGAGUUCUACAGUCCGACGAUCGUCCUGUGCUACACAUCGUAUGUACCGAAUCGGAAAAAAAGGAAAAAGGUUUUUUUGGAAAGUAUUAUGUUACGCCGUUCGGAUCUGCACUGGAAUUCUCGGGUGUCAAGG | -2.18
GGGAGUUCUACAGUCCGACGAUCGCAGGAAGUAACAACAAAUGGAAAUGCUUCGGAUAGUGGCAGGGGUGGGGGUUGCUAAGGAAAGGGUGGGAUGGGAGUGGGUAAAGAGUUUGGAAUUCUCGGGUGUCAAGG | -0.205
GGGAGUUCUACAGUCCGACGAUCCUGUGCUACACAUCGUAUGUACCGAAUCGGCCCCCCCGGGCCCCCCCGGGGCCCCCCCGGGAAAGUAUUAUGUUACGCCGUUCGGAUCUGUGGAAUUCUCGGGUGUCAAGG | -0.339
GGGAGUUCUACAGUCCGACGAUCAGUCCUGUGCUACACAUCGUAUGUACCGAAUCGGGAGGGAAAAAGGGAAAAAAAGGGAAAGUAUUAUGUUACGCCGUUCGGAUCUGCACUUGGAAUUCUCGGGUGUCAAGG | -0.348
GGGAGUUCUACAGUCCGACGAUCUGGCCCUGGUGGAAUGCGGGGAGGAAGAGGUGGCCUCAUGGAUCGUGGUGGUCCCGGUGGAAUGUUCAGAGGUGGCCGUGGUGGAGACAGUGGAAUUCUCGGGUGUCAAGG | 0.542
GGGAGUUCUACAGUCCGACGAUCGCAGGAAGUAAAAACAAAUGGAAAUGCUUCGCAUAGUGGCAGGGGUGGGGGUUGCUAAGGAAAGGGUGGGAUGGGAGUGGGUAAAGAGUUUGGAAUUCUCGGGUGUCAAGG | 0.366
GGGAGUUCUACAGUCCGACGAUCUCAAGUCCUGUGCUACACAUCGUAUGUACCGAAUCGGUUUGGAAAGGUUUUUGGAAAGUAUUAUGUUACGCCGUUCGGAUCUGCACUUCCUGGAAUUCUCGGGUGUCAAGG | -0.493
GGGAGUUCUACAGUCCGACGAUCUCAAGUCCUGUGCUACACAUCGUAUGUACCGAAUCGGGAAAGGGAAAGGGUGGGAAAGUAUUAUGUUACGCCGUUCGGAUCUGCACUUCCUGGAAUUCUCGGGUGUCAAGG | -0.564
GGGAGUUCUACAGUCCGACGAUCUCAAGUCCUGUGCUACACAUCGUAUGUACCGAAUCGGGAAAGGGUGGGAAAGGGAAAGUAUUAUGUUACGCCGUUCGGAUCUGCACUUCCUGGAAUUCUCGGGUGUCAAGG | -0.377
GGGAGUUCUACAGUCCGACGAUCCCUGUGCUACACAUCGUAUGUACCGAAUCGGGGCCCCCCGGGGCCCCCCGGGCCCCCCGGAAAGUAUUAUGUUACGCCGUUCGGAUCUGCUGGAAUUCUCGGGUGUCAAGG | -1.38

Series 3
Target: TAR DNA-binding protein 43, full length, His tag (TARDBP, Homo sapiens, UniProt Q13148, residues 1-414)
Method: RNA Bind-n-Seq
Form: RNA
Sample: in vitro
Tested at: 20 nM
Setting: 6-mer, flanks averaged, single round
With: 150 mM KCl
Reference: input library
Reading: higher = stronger binding
Oligonucleotide | 6-mer enrichment (R)
GCAUUC | 0.615
AGCCGG | 1.45
UUGUUC | 0.587
GUCUCU | 0.61
CUAACA | 0.638
CCUCAC | 0.602
AAGACC | 0.656
CCGCCG | 0.816
AAGCAG | 0.909
AGAUGU | 0.815
GAAGCC | 0.835
UGGUGG | 3.23
CUACUG | 0.653
ACCCUG | 0.673
AGCCCC | 0.685
UCGGGU | 1.59
CCAUUG | 0.665
GACGCA | 0.913

Series 4
Target: ABI1, truncated, D143A, DHFR fusion (Arabidopsis thaliana)
Method: DHFR PCA, deep sequencing
Sample: yeast
Setting: methotrexate growth selection, single substitutions
With: (+)-ABA 200 µM
Reference: wild-type fitted maximum
Reading: higher = stronger binding
Starting sequence: PYL1, truncated, DHFR fusion (Arabidopsis thaliana); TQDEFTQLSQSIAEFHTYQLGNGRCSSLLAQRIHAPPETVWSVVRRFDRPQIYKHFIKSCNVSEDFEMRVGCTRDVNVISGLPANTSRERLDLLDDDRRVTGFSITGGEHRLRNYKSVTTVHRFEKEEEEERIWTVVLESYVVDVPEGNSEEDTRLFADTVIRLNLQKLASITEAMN
Variant | relative binding score
S26N | 91.2%
V118Q | 70.9%
D92Y | 50.6%
F5P | 88.8%
S87K | 20%
T154D | -15.8%
Q10A | 94.5%
V100W | 16.9%
V161G | -6.18%
L29Q | 91.5%
E89V | 9.46%
S104W | 0.394%
T86F | 95.5%
E131Y | 101%
E151M | 91.3%
D144K | 64.1%
R111G | 43.5%
P146C | 66.8%
T119V | 83.1%
R90Q | 96.1%
R74I | 7.1%
M176L | 96.5%
R90Y | 59.8%
T39M | 100%
R163D | 44.8%

Series 5
Target: UBE2J1 UBC core domain (UniProt Q9Y385)
Method: yeast two-hybrid
Sample: yeast
Setting: mostly zero background
Reference: not given
Reading: higher = stronger interaction
B1: RC3H2 RING domain (UniProt Q9HBD1); chain QAAQWTEFLSCPICYNEFDENVHKPISLGCSHTVCKTCLNKLHRKACPFDQTAINTDIDVL
B2: TRIM63 RING domain (UniProt Q969Q1); chain PMENLEKQLICPICLEMFTKPVVILPCQHNLCRKCANDIFQAANPYWTSRGSSVSMSGGRFRCPTCRHEVIMDRHGV
B3: IRF2BPL RING domain (UniProt Q9H1B7); chain SPMANSGPLCCTICHERLEDTHFVQCPSVPSHKFCFPCSRESIKAQGATGEVYCPSGEKCPLVGSNVP
B4: ARK2C RING domain (UniProt Q6ZSG1); chain EGEESDTDEKCTICLSMLEDGEDVRRLPCMHLFHQLCVDQWLAMSKKCPICRVDIETQLGAD
B5: PHF21A RING domain (UniProt Q96BD5); chain SPTSTDGDIHEDFCSVCRKSGQLLMCDTCSRVYHLDCLDPPLKTIPKGMWICPRCQDQMLKKEEAIPW
B6: CUL9 RING domain (UniProt Q8IWT3); chain AQAVPVRPDHCPVCVSPLGCDDDLPSLCCMHYCCKSCWNEYLTTRIEQNLVLNCTCPIADCPAQPTGAFIR
B7: TRIM69 RING domain (UniProt Q86WT6); chain VIQDITMELHCPLCNDWFRDPLMLSCGHNFCEACIQDFWRLQAKETFCPECKMLCQYNNCTF
B8: ZNF598 RING domain (UniProt Q86UK7); chain AAAPERGGGSCVLCCGDLEATALGRCDHPVCYRCSTKMRVLCEQRYCAVCREELRQVVFGK
Construct (chain): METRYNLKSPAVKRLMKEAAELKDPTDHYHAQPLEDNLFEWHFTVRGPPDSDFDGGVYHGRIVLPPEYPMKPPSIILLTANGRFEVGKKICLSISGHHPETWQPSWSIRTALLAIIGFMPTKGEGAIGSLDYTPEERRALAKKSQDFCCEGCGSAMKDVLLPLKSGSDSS
Molecule | lacZ reporter activity
B1 (RC3H2 RING domain) | 0
QLQDIKEQTMCPVCLDRLKNMIFLCGHGTCQLCGDRMSECPICRKAIERRILLY (MIB1 RING domain (UniProt Q86YT6)) | 0
B2 (TRIM63 RING domain) | 0
B3 (IRF2BPL RING domain) | 0
B4 (ARK2C RING domain) | 0
B5 (PHF21A RING domain) | 0
B6 (CUL9 RING domain) | 0
PEELQAMDNVCIICREEMVTGAKRLPCNHIFHTSCLRSWFQRQQTCPTCRMDVLRASLPA (SYVN1 RING domain (UniProt Q86TM6)) | 0
QLRRLQEERTCKVCMDKEVSIVFIPCGHLVVCKDCAPSLRKCPICRSTIKGTVRTF (BIRC3 RING domain (UniProt Q13489)) | 0
B7 (TRIM69 RING domain) | 0
B8 (ZNF598 RING domain) | 0

Series 6
Target: CEBPE, bZIP domain (human)
Method: DHFR protein complementation
Sample: yeast
Setting: single substitutions, most at no-binding floor
Reference: wild-type JUN-FOS pair
Reading: higher = stronger binding
Starting sequence: JUN, bZIP domain (human); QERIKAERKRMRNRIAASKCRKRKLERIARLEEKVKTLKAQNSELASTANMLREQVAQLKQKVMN; partner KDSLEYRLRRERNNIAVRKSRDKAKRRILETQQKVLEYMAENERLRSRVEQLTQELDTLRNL
Variant | binding fitness [natural log]
L52K | -1.44
A49P | -1.48
L45R | -1.49
K34D | -1.39
L52E | -1.62
T48A | -1.24
A57Y | -1.06
L45D | -1.49
Q55G | -1.49
A29T | -1.12
L38Q | -1.57

Series 7
Target: CCNE1, cyclin fold, Cln2 fusion (human)
Method: yeast growth competition, sequencing
Sample: yeast
Setting: strong parent motif
Reference: not given
Reading: higher = stronger binding
Starting sequence: E2F3 docking peptide (human); PPAKRRLELGESG; partner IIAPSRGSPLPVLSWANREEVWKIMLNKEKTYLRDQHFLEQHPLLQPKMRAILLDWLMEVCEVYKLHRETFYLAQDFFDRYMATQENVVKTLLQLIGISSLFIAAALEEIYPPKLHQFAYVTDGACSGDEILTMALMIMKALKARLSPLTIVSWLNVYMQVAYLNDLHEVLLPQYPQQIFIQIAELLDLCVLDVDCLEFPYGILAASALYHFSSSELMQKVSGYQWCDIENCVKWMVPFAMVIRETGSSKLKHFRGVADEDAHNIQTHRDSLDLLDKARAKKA
Variant | normalised enrichment score
PPAKRRLALGESG [E8A] | 0.596
PPAKKRLELGESG [R5K] | -0.386
PPAKRRLELAESG [G10A] | 1.2
PPAKRRLELGEAG [S12A] | 1.43
PPAKRRLELGASG [E11A] | 1.08
PPAARRLELGESG [K4A] | 0.797
PPAKRRLEFGESG [L9F] | 5.39
PPAKARAELGESG [R5A L7A] | 0.076
PPAKRRLELGESA [G13A] | 0.365

Excerpt of the above (series 3):
Oligonucleotide | 6-mer enrichment (R)
UUGUUC | 0.587
GCAUUC | 0.615
UGGUGG | 3.23
AAGCAG | 0.909
AAGACC | 0.656
AGCCGG | 1.45
UCGGGU | 1.59
AGCCCC | 0.685
CCAUUG | 0.665
